Measured values from different studies.
Parts stem from different laboratories: compare values within a part only. Changes are numbered by the printed parent chain.

Sample 1 — method: protein binding microarray; molecule type: double-stranded DNA, one strand shown; matrix: in vitro; concentration: not given; baseline: not given; direction: higher = stronger binding
Target: Histone acetyltransferase KAT6A, winged helix 2, GST fusion (KAT6A, Homo sapiens, UniProt Q92794, residues 85-181)
Notes: 8-mer, flanks averaged, mean of 2 arrays, mostly near background
Target sequence (chain): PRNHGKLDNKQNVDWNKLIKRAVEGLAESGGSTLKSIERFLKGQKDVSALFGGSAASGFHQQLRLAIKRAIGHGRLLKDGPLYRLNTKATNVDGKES
Sequence	E-score
CACGAAAA	0.0318
ATAATTGG	-0.0409
TGAAGCAA	0.0379
CTAGTATA	0.00046
GCTTTGAC	0.0976
CGCTGTAA	0.17
GCGCATAA	-0.139
GCGGGAGC	0.1
CATTAATC	-0.0158
GAAAAGGC	0.101
AAGTACTC	-0.00776
GATTAAAA	0.215
ACCCACCC	-0.000165
CATTCAAC	-0.0532
CGCATGAA	0.0186
ACACCTGT	-0.186
TATAGCCA	-0.0691
ATTGGCCC	-0.125
GGGTTCCA	-0.0254
AAAGTCAC	-0.139

Sample 2 — method: RNA Bind-n-Seq; molecule type: RNA; matrix: in vitro; concentration: 365 nM; baseline: no-protein control; direction: higher = stronger binding
Target: RNA binding protein fox-1 homolog 2, RRM domain, GST-SBP tag (RBFOX2, Homo sapiens, UniProt O43251-10, residues 100-194)
Notes: natural RNA segment, single round, ends assumed
Constant ends, left off below: GGGAGUUCUACAGUCCGACGAUC … UGGAAUUCUCGGGUGCCAA
Residues (chain): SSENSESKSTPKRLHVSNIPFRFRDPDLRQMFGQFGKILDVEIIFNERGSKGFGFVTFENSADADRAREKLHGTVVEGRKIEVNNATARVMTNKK
Sequence	RBNS enrichment (R)
AAUAUUUUUGAUCGACCAAAUAAAAUGUCCUAAUAAUCUACUCUAUUUAUAUCUACAUUUCCUUCCAGCUGAGUCUUCAAAUUUAGCAUUAUUUUGACACUUUUAAUUUU	0.843
CAGUACUACAAAAUAAAGGGGAAAGAAUUCUUGUAGAUAGAAUCCCAAGAGAGCUCAUUUAAUUGUGCUGUGACAAUGAAGAUUACUGGAAUGAAUUUUUGUCUUUUGUA	1.09
GAGGCAAUGUGAAAGAGGGAGUAUUACUUUUAUGUACAAAGUUAUUUAUUUAUAGAAAUUUUGGUACAGUGUACAUUGAAAACCAUGUAAAAUAUUGAAGUGUCUAACAA	0.741
UGGGUUUUGGAGCUUUUAAAAAUGUUUGCUUUCAGGUAUUUUUACUCAUGUGAAGUGAUCUUGAUUCUUCUGAGGUUUUAAACUAAAAUGUUGCUUCCUGUUUUAGUGUC	4.21
UGUCUUUUUAAUAUUCUUGUGAUGUUUUCAGAGCCGCUGUAGGUCUCUUCUUGCAUGUCCACAGUAAUGUAUUUGUGGUUUUUAUUUUGAACGCUUGCUUUUAGAGAGAA	123
ACCUUACUCCUUUCCUUUCCCCUGAACAAACCUGCUAAUCCCACUAAUUCAGGAAUUUGAGUAGAGAUGGGGAACAAGAACCCAGAUGCUGUCCCCUCACCCCCUCUCCU	0.453
AGAAUGCUGAUGCUUUUGUAAGGCUUUGACCUGGUUAGGUCAUUGGGGGAAAUUUUCUAUAAAAGAGUGAACAAUUAUAUUUAUAUUUCAAGUUAAAGUAGUUUGGAUAC	0.765
UAUGCACUUCAAGAGCUCACACUCACAUUGUGGCAAACAGUCAACAUGGAAGUAGACCGGCUCUGCUGAUUUGAAAUUUAGAUUUUUUUUUAAUUAUGUACUGGGGACAG	0.454
CACAGUUUCCUGGGGAGGCCUGAGUACACACAGGCCUGUGUCAGGAGGAGGGUCAUGGCUCCAAAUCCGCUUGCCAGUCCCGCCCUCUCUCAGGUUCAGUGGGACUGCCA	0.219
UGCCGCCUGACCGGGCGACCCUUUUCAGUUCGGCAAACGUCGCUCCCUUCAUUUUGGGACUGAGGCUGCAGCAUUGGAACAAAAGAGCAUUAUUUCAAUUUUUCUUUCUU	0.357
GCAUGUCACACCCCCCCUCAGUAGACUUGAGUAUUUUGAUGACCAAAGAGGAUGAUUUUCCUCAGAGAGAAGUGCCAGCGCCCUCCAGAGCUGUGAUCCAGGAUGGCAUG	5.61
CAGGCCACCUCCCCAGCAUUCCAGCCCCUCUGGUCGCUCCUGCCCACGGAGUCGUGGGGUGUGCUGGGAGCUCCACUCUGCUUCUCUGACUUCUGCCUGGAGACUUAGGG	0.27

Sample 3 — target: CCND1, cyclin fold, Cln2 fusion (human); method: yeast growth competition, sequencing; matrix: yeast; notes: weak parent motif; baseline: not given; direction: higher = stronger binding
Parent: CDKN1B docking peptide (human); PSACRNLFGPVDH; partner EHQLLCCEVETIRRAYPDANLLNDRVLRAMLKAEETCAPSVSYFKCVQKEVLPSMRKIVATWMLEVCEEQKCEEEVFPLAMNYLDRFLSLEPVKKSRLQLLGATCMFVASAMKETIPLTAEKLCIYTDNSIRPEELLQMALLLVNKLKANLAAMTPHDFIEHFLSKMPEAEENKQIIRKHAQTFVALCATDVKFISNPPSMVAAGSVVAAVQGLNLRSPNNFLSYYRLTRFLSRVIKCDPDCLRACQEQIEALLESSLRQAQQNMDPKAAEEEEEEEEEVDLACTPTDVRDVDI
Variant	normalised enrichment score
P10C	0.339
L7M	0.264
R5A	0.137
S2Q	0.183
L7R	-0.0676
S2M	0.157
N6T	0.344
N6W	0.239
D12F	0.488
G9C	0.577
A3F	0.43
P10V	0.31
A3D	0.368
G9S	0.147
F8H	0.572
G9V	-0.0481

Sample 4 — method: DHFR PCA, deep sequencing; matrix: yeast; with: (+)-ABA 17 µM; baseline: wild-type fitted maximum; direction: higher = stronger binding
Target: ABI1, truncated, D143A, DHFR fusion (Arabidopsis thaliana)
Notes: methotrexate growth selection, single substitutions
Parent: PYL1, truncated, DHFR fusion (Arabidopsis thaliana); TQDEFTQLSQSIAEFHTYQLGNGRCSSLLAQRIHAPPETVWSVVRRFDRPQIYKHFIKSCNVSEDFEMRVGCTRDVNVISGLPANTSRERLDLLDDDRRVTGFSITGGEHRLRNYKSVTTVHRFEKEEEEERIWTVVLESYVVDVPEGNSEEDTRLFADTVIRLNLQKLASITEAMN; partner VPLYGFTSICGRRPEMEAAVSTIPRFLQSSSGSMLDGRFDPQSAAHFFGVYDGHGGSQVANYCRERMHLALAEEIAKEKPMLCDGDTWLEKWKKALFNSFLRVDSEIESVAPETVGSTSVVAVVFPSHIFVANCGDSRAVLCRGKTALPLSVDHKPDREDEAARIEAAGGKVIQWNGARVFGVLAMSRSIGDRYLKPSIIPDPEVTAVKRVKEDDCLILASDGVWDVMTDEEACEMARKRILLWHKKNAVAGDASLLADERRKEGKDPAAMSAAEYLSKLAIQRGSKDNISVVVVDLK
Variant	relative binding score [%]
T173M	59.3
K168C	78.2
D3I	73.9
L156S	78.8
L91A	-3.29
I162N	6.88
R69C	78.2
S117G	14.1
E67I	85.6
V121K	1.64
I33S	1.28
R49N	79.6
T6Q	88.2
E151V	87.8
T73C	78.7

Sample 5 — method: RNA Bind-n-Seq; molecule type: RNA; matrix: in vitro; concentration: not given; notes: RNA with constant flanks, ends assumed; baseline: input RNA pool; direction: higher = stronger binding
Target: RING finger protein unkempt homolog, zinc fingers 1-6, GST-SBP tag (UNK, Homo sapiens, UniProt Q9C0B0, residues 30-357)
Constant ends, left off below: GGGAGUUCUACAGUCCGACGAUC … CAACAGAGGAUUGAGCAUCA
Construct (chain): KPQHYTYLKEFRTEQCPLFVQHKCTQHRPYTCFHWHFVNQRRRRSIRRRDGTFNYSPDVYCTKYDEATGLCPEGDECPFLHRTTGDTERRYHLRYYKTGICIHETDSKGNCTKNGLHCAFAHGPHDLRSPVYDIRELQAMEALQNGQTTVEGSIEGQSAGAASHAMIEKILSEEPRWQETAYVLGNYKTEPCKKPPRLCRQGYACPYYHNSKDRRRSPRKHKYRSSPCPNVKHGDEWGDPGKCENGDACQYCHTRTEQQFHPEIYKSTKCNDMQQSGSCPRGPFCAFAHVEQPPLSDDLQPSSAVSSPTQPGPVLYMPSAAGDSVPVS
Sequence	bound/input enrichment
CUGAAGGUUCUAGGCACAGCUUUUGAUCCCUUCUUAGGAGGAAAGAACUUUGAUGAGAAGCCCGCCGAACAUUUUUGUGCUGAAUUUAAAACCAAGUACAAAUUGGAUGCAAAAUCCAAA	0.0968 ratio
AGGUGGCAGAGAGGCUGGGGAGUUGCCCAUCGCUGCAGCCAGCUGCACAGUCUCAGCCGCCCCGCACAGCAGAAUCCGGGGCCACUUCAGAAUGUGAAAGGAUGCACGGUUGUAUUCACA	0.148 ratio
AUGCAGUAUGAGACCAACAGCUUGGACUUCAAAGUCGGGGCGGAUGGGACAGUCUUCGCCACCCGGGAGUUGAAGAUCCCCUCAGAGCAGGUGGCCUUUACCGUCACUGCGCGGGAACGC	0.0871 ratio
CCAAGAAUUCCAAACAUGCCUGACAAUCUUGUCCCCUUAUUGUAAUAAAGAGGGAUACCAUCAGUCCCGAUUUUAUUGAGAAUCCUUAAGAUUUAAAGCAUAGCUGUGGAUGUGGUGAAG	0.304 ratio
ACAGUUACUUAAUUUCUAGAGUUCAGGCCUCUGGGAUCAACCCCAGACUGGGCCAGAAUGUCCGUGAAGGUUUUAUUGUGCCCGGUUGGAGGAUAACGUUCUUUGGGUACUUUUUGUGGG	0.27 ratio
CCCUGGGGUAUGACGUGGCAUGGGGGAGCAAGCAGUCCAGGGGACCUCUUGGAAACAGCAUCCGGCUUUUUCCCUUUUCAGUAACAUUGUUCGGAACUACUUGUCAAUGUGUUUGAGGUG	0.292 ratio
UGGGUUACUCCUAUUAUUAUCAAGUAGCUGGAAUUGUGAAGGUCGGAGUAGUUAGAUCUUCCGCUUUUAUUCCUUAUUUUUUUGUAUUACUCUCCAUGUGUAUAAAUUAUUGAUCAUGUU	36.9 ratio

For quick reference, copied from above (sample 3):
Variant	normalised enrichment score
P10C	0.339
L7M	0.264
R5A	0.137
S2Q	0.183
L7R	-0.0676
S2M	0.157
N6T	0.344
N6W	0.239
D12F	0.488
G9C	0.577
